Assay results pooled from the literature.
Lines come from different studies, so protocols differ.
Organism: Mycobacterium tuberculosis

CC(C)C[C@H](NC(=O)[C@H](C)NC(=O)[C@H](CCC(=O)O)NC(=O)[C@@H](N)Cc1c[nH]cn1)C(=O)N[C@@H](COP(=O)(O)O)C(=O)N[C@@H](CC(=O)O)C(=O)N1CCC[C@H]1C(=O)N[C@@H](CC(=O)O)C(=O)O
MIC (H37Rv): 50 mg/L

FC(F)(F)c1ccc(CCNc2cc(-c3ccco3)nc3nncn23)cc1
MIC (microbial growth; H37RV; 5 days): 1.6 µM

O=c1c(N2CCCC2)c(Cl)cnn1-c1ccccc1
MIC (bacterial growth; H37Rv, 7H9 medium): 450 µM

Cc1nc(=S)[nH]c(C)c1/N=N/c1nnc(S)[nH]1
MIC (microbial growth, resazurin; H37RV; 5 days): 4 to 64 mg/L

Cc1nc2ccc(C(F)(F)F)cn2c1C(=O)NCc1ccc2oc(-c3ccc(Cl)cc3)nc2c1
MIC (optical density; H37Rv; 144 h): > 10 µM

O=C(CN1C(=O)CSC1=O)Oc1ccc(/C=N/NC(=O)c2ccncc2)cc1Br
MIC (microbial growth, resazurin; H37RV): 0.262 µM

Cc1nc(=O)[nH]c(C)c1/N=N/c1nnc(S)s1
MIC (microbial growth, resazurin; H37RV; 5 days): > 64 mg/L

CCCCNc1c(Cl)cnn(-c2ccccc2)c1=O
MIC (bacterial growth; H37Rv, 7H9 medium with OADC): > 900 µM

COc1c(N2CC3CCCNC3C2)c(F)cc2c(=O)c(C(=O)OCc3ccc([N+](=O)[O-])cc3)cn(C3CC3)c12 (centres unmarked)
MIC (microbial growth; H37RV): 2 µM

Cc1ccc2nc(C)c(C(=O)C(=O)N(C)C)n2c1
MIC (microbial growth; H37RV; 5 days): > 20 µM

CCCCN(CCCC)CC(O)COc1c2ccoc2c(OC)c2oc(CC)cc(=O)c12 (centres unmarked)
MIC (microbial growth, resazurin; H37RV; 21 days): 16 mg/L

COc1ccc2ncc(F)c(CC[C@@]3(O)CO[C@@H]4[C@@H](NCc5ccc(C)cc5)CO[C@@H]43)c2n1
MIC (microbial growth; H37RV): 8 mg/L

O=C1NC(=O)C(/N=N/c2nnc(S)[nH]2)C(=O)N1
MIC (microbial growth, resazurin; H37RV; 5 days): > 64 mg/L

COc1ccc2nccc(CC[C@H]3OC[C@H](NCc4ccc(Cl)c(Cl)c4)CO3)c2c1
MIC (microbial growth; H37RV): ≤ 1 mg/L

O=C(CN1C(=O)CSC1=O)Oc1ccc(/C=N/NC(=O)c2cccnc2)cc1Br
MIC (Alamar blue; 192): 268 µM

Cc1ccc(-c2nc3ccc(C)cn3c2C(=O)C(=O)NCc2ccc(N(C)C)cc2)cc1
MIC (microbial growth; H37RV; 5 days): > 20 µM

Cc1[nH][nH]c(=O)c1/N=N/c1nnc(S)[nH]1
MIC (microbial growth, resazurin; H37RV; 5 days): > 64 mg/L

COc1ccc2nccc(CC[C@H]3OC[C@H](NC(=O)c4ccc(C)cc4)CO3)c2c1
MIC (microbial growth; H37RV): > 32 mg/L

COc1c(Cl)cnn(-c2cccc(C)c2)c1=O
MIC (bacterial growth; H37Rv, 7H9 medium with OADC): > 1000 µM

Cc1ccc2nc(C)c(C(=O)C(=O)NCc3ccccc3)n2c1
MIC (microbial growth; H37RV; 5 days): 8.5 µM

O=C(CN1C(=O)CSC1=O)Oc1ccc(/C=N/NC(=O)c2ccncc2)cc1Cl
MIC (Alamar blue; 192): 0.144 µM

Cc1ccc2nc(C)c(CC(=O)NCc3ccccc3)n2c1
MIC (microbial growth; H37RV; 5 days): > 20 µM

O=c1c(Cl)c(Cl)cnn1Cc1ccccc1
MIC (bacterial growth; H37Rv, Sauton's medium): 490 µM

CCC(CO)NCCNC(CC)CO.O=C(CN1C(=O)CSC1=O)Oc1ccc(C=NNC(=O)c2ccccn2)cc1Br
MIC (growth in combination; 192; together with: reference drug at 1/2 MIC): 0.5 mg/L

Cc1[nH]c(=O)[nH]c(=O)c1/N=N/c1nnc(S)s1
MIC (microbial growth, resazurin; H37RV; 5 days): > 64 mg/L

CCOc1cc(/C=N/NC(=O)c2ccncc2)ccc1OC(=O)CN1C(=O)CSC1=O
MIC (Alamar blue; 192): 0.283 µM

CCc1nc2cc(C(F)(F)F)ccn2c1C(=O)NCc1ccc2oc(-c3ccc(OC(F)(F)F)cc3)nc2c1
MIC (optical density; H37Rv; 144 h): > 25 µM

COc1ccc2ncc(F)c(CC[C@H]3OC[C@H](NCc4ccc(Cl)c(Cl)c4)CO3)c2n1
MIC (microbial growth; H37RV): ≤ 1 mg/L

Cc1nc2cc(C(F)(F)F)ccn2c1C(=O)NCc1ccc2oc(-c3ccc(OC(F)(F)F)cc3)nc2c1
MIC (optical density; H37Rv; 144 h): > 25 µM

CCOc1cc(/C=N/NC(=O)c2cccnc2)ccc1OC(=O)CN1C(=O)CSC1=O
MIC (microbial growth, resazurin; H37RV): 579 µM

CCc1nc2cc(Br)ccn2c1C(=O)NCc1ccc2oc(-c3ccc(OC(F)(F)F)cc3)nc2c1
MIC (optical density; H37Rv; 144 h): > 10 µM

CCc1ccn2c(C(=O)NCc3ccc(C)cc3)c(C)nc2c1
MIC (microbial growth; H37RV; 5 days): 0.004 µM

COc1ccc2ncc(F)c(C[C@H](O)[C@H]3OC[C@H](NCc4cc5c(nn4)OCCS5)CO3)c2n1
MIC (microbial growth; H37RV): 4 mg/L

COCCOc1ccc(Nc2cc(-c3ccccn3)nc3ncnn23)cc1
MIC (microbial growth; H37RV; 5 days): > 100 µM

COc1c(N2CC3CCCNC3C2)c(F)cc2c(=O)c(C(=O)OCc3ccccc3)cn(C3CC3)c12 (centres unmarked)
MIC (microbial growth; H37RV): 1 µM

CCc1nc2cc(C(F)(F)F)ccn2c1C(=O)NCc1ccc2oc(-c3ccc(Cl)cc3)nc2c1
MIC (optical density; H37Rv; 144 h): > 25 µM

CCOc1c(Cl)cnn(-c2ccccc2)c1=O
MIC (bacterial growth; H37Rv, 7H9 medium with OADC): 1000 µM

Cc1ccc2nc(C)c(CC(=O)NCc3ccc(N(C)C)cc3)n2c1
MIC (microbial growth; H37RV; 5 days): 0.7 µM

CCc1nc2ccc(Cl)cn2c1C(=O)NCc1ccc2oc(-c3ccc(OC(F)(F)F)cc3)nc2c1
MIC (optical density; H37Rv; 144 h): ≤ 0.04 µM

Cc1nn(-c2ccccc2)c(C)c1/N=N/c1nnc(S)s1
MIC (microbial growth, resazurin; H37RV; 5 days): > 64 mg/L

Cc1nc2ccc(OC(F)(F)F)cn2c1C(=O)NCc1ccc2oc(-c3ccc(OC(F)(F)F)cc3)nc2c1
MIC (optical density; H37Rv; 144 h): > 25 µM

CCOc1cc(C=NNC(=S)Nc2cccc(Cl)c2)ccc1OC(=O)CN1C(=O)CSC1=O.NNC(=O)c1ccncc1
MIC (growth in combination; 192; together with: reference drug at 1/2 MIC): 0.0312 mg/L

C=CCOC(=O)c1ccc(OS(=O)(=O)CCNc2ccc(S(=O)(=O)c3ccc(N)cc3)cc2)cc1
MIC (pabC deletion mutant; concentration not given, 12 days): 1.56 µM

CCSc1cnn(-c2ccccc2)c(=O)c1Cl
MIC (bacterial growth; H37Rv, Sauton's medium): 940 µM

FC(F)(F)Oc1ccc(CCNc2cc(-c3ccc(Cl)s3)nc3nncn23)cc1
MIC (microbial growth; H37RV; 5 days): 20 µM

CCC(CO)NCCNC(CC)CO.CCOc1cc(C=NNC(N)=S)ccc1OC(=O)CN1C(=O)CSC1=O
MIC (growth in combination; H37Rv; together with: reference drug at 1/2 MIC): 0.5 mg/L

Cc1nc2ccc(OC(F)(F)F)cn2c1C(=O)NCc1ccc2oc(-c3ccc(Cl)cc3)nc2c1
MIC (optical density; H37Rv; 144 h): > 10 µM

A few entries again:
CCOc1cc(C=NNC(=S)Nc2cccc(Cl)c2)ccc1OC(=O)CN1C(=O)CSC1=O.NNC(=O)c1ccncc1
MIC (growth in combination; 192; together with: reference drug at 1/2 MIC): 0.0312 mg/L

CCOc1c(Cl)cnn(-c2ccccc2)c1=O
MIC (bacterial growth; H37Rv, 7H9 medium with OADC): 1000 µM

COc1ccc2nccc(CC[C@H]3OC[C@H](NC(=O)c4ccc(C)cc4)CO3)c2c1
MIC (microbial growth; H37RV): > 32 mg/L

Cc1ccc2nc(C)c(CC(=O)NCc3ccc(N(C)C)cc3)n2c1
MIC (microbial growth; H37RV; 5 days): 0.7 µM

CCCCN(CCCC)CC(O)COc1c2ccoc2c(OC)c2oc(CC)cc(=O)c12 (centres unmarked)
MIC (microbial growth, resazurin; H37RV; 21 days): 16 mg/L

Cc1nc(=S)[nH]c(C)c1/N=N/c1nnc(S)[nH]1
MIC (microbial growth, resazurin; H37RV; 5 days): 4 to 64 mg/L

COc1c(N2CC3CCCNC3C2)c(F)cc2c(=O)c(C(=O)OCc3ccc([N+](=O)[O-])cc3)cn(C3CC3)c12 (centres unmarked)
MIC (microbial growth; H37RV): 2 µM
